Results of several laboratories.
± gives the spread as reported.

Compound | species | sample | route | dose | time | notes | tissue uptake
CC(C)C[C@@H](NC(=O)[C@@H](CCC(=O)O)NC(=O)[C@@H](CC(C)C)NC(=O)[C@@H](CC(C)C)NC(=O)[C@@H](CC(C)C)NC(=O)[C@H](NC(=O)[C@@H](CCC(=O)O)NC(=O)[C@H](NC(=O)[C@H]1CCCN1C(=O)[C@@H](Cc1ccccc1)NC(=O)[C@@H](CC(C)C)NC(=O)[C@@H](Cc1c[nH]c2ccccc12)NC(=O)[C@@H](CCC(=O)O)NC(=O)[C@@H](CC(C)C)NC(=O)[C@@H](Cc1ccc(O)cc1)NC(=O)[C@@H](CCCNC(=N)N)NC(=O)[C@@H](C)NC(=O)[C@@H](Cc1c[nH]c2ccccc12)NC(=O)[C@H]1CCCN1C(=O)[C@@H](CC(N)=O)NC(=O)[C@@H](CCC(N)=O)NC(=O)[C@@H](CCC(=O)O)NC(=O)[C@@H](CCC(=O)O)NC(=O)[C@@H](CSC1CC(=O)N(CCNC(=O)CN2CCN(CC(=O)O)CCN(CC(=O)O)CC2)C1=O)NC(=O)[C@@H](C)N)[C@H](C)O)[C@H](C)O)C(=O)O (some centres unmarked) [copper-64 labelled] | BALB/c mice, female, 4T1 orthotopic tumour | large intestine | intravenous |  | 4 h |  | 8.19 ± 0.85 %ID/g
Cc1cc(O)cc(C)c1C[C@H](NC(=O)[C@@H]1CCCN1C(=O)[C@H](CCCNC(=N)N)NC(=O)[C@H](CCCNC(=N)N)N(C)C(=O)[C@@H]1CCCN1C(=O)[C@H](CCCCN)NC(=O)CCNC(=O)CN1CCN(CC(=O)O)CCN(CC(=O)O)CCN(CC(=O)O)CC1)C(=O)N[C@H](C(=O)N[C@@H](CC(C)C)C(=O)O)C(C)(C)C [lutetium-177 labelled] | CF-1 mice | kidney |  | dose not given | 1 h |  | 13.1 ± 0.18 %ID/g
CCCC[C@H](NC(=O)COCCOCCNC(=O)CN1CCN(CC(=O)O)CCN(CC(=O)O)CC1)C(=O)N[C@H]1CC(=O)NCCCC[C@@H](C(N)=O)NC(=O)[C@H](Cc2c[nH]c3ccccc23)NC(=O)[C@H](CCCNC(=N)N)NC(=O)[C@@H](Cc2ccccc2)NC(=O)[C@H](Cc2c[nH]cn2)NC1=O [copper-64 labelled] | C57 mice | intestine | intravenous | 0.37 MBq | 0.5 h |  | 3.26 ± 1.86 %ID
N=C(N)NCCC[C@@H]1NC(=O)[C@H](CCCCNC(=O)CNC(=O)CNC(=O)CNC(=O)CC[C@H](NC(=O)CNC(=O)CNC(=O)CNC(=O)CN2CCN(CC(=O)O)CCN(CC(=O)O)CCN(CC(=O)O)CC2)C(=O)NCC(=O)NCC(=O)NCC(=O)NCCCC[C@@H]2NC(=O)[C@@H](Cc3ccccc3)NC(=O)[C@H](CC(=O)O)NC(=O)CNC(=O)[C@H](CCCNC(=N)N)NC2=O)NC(=O)[C@@H](Cc2ccccc2)NC(=O)[C@H](CC(=O)O)NC(=O)CNC1=O [indium-111 labelled] | female athymic nu/nu mice | lungs | intravenous |  | 1 h |  | 1.71 ± 0.48 %ID/g
CN1C(=O)[C@@H](Cc2ccc(O)cc2)NC(=O)CNC(=O)[C@H](Cc2ccc3ccccc3c2)NC(=O)[C@H](CCCNC(=N)N)NC(=O)[C@H]1CCCNC(=O)c1ccc(CNC(=O)CN2CCN(CC(=O)O)CCN(CC(=O)O)CCN(CC(=O)O)CC2)cc1 [gallium-68 labelled] | SCID mice, lymphoma xenograft | liver | intravenous |  | 2 h |  | 0.8 ± 0.1 %ID/g
CC(C)C[C@H](NC(=O)CN1CCN(CC(=O)O)CCN(CC(=O)O)CC1)C(=O)N[C@@H](CC(C)C)C(=O)N[C@@H](CC(C)C)C(=O)N[C@@H](CC(C)C)C(=O)N[C@@H](CCCNC(=N)N)C(=O)N[C@H](C(=O)N[C@@H](CCCCN)C(=O)N[C@@H](CCCNC(=N)N)C(N)=O)C(C)C [copper-64 labelled] | male Nu/Nu nude mice, LNCaP xenograft | LNCaP tumour | intravenous |  | 15 min |  | 13 ± 2 %ID/g
CC(C)CC(CC(C)C)NC(=O)[C@H](Cc1cnc[nH]1)NC(=O)CNC(=O)[C@@H](NC(=O)[C@H](C)NC(=O)[C@H](Cc1c[nH]c2ccccc12)NC(=O)[C@H](CCC(N)=O)NC(=O)[C@@H](Cc1ccccc1)NC(=O)COCC(=O)Nc1ccc(CNC(=O)CN2CCN(CC(=O)O)CCN(CC(=O)O)CCN(CC(=O)O)CC2)cc1)C(C)C [lutetium-177 labelled] | female NMRI-Foxn1 nu/nu mice, T47D xenograft | tumour |  | 4 MBq | 24 h | placebo group | 5.9 ± 1.22 %ID/g
CC(C)C[C@@H](NC(=O)[C@@H](CCC(=O)O)NC(=O)[C@@H](CC(C)C)NC(=O)[C@@H](CC(C)C)NC(=O)[C@@H](CC(C)C)NC(=O)[C@H](NC(=O)[C@@H](CCC(=O)O)NC(=O)[C@H](NC(=O)[C@H]1CCCN1C(=O)[C@@H](Cc1ccccc1)NC(=O)[C@@H](CC(C)C)NC(=O)[C@@H](Cc1c[nH]c2ccccc12)NC(=O)[C@@H](CCC(=O)O)NC(=O)[C@@H](CC(C)C)NC(=O)[C@@H](Cc1ccc(O)cc1)NC(=O)[C@@H](CCCNC(=N)N)NC(=O)[C@@H](C)NC(=O)[C@@H](Cc1c[nH]c2ccccc12)NC(=O)[C@H]1CCCN1C(=O)[C@@H](CC(N)=O)NC(=O)[C@@H](CCC(N)=O)NC(=O)[C@@H](CCC(=O)O)NC(=O)[C@@H](CCC(=O)O)NC(=O)[C@@H](CS)NC(=O)[C@@H](C)NC(=S)Nc1ccc(CC2CN(CC(=O)O)CCN(CC(=O)O)CCN2CC(=O)O)cc1)[C@H](C)O)[C@H](C)O)C(=O)O (some centres unmarked) [copper-64 labelled] | BALB/c mice, female, 4T1 orthotopic tumour | small intestine | intravenous |  | 4 h |  | 0.307 ± 0.077 %ID/g
N=C(N)NCCC[C@@H]1NC(=O)[C@H](CCCCNC(=O)CNC(=O)CNC(=O)CNC(=O)CC[C@H](NC(=O)CNC(=O)CNC(=O)CNC(=O)CC[C@H](NC(=O)CN2CCN(CC(=O)O)CCN(CC(=O)O)CCN(CC(=O)O)CC2)C(=O)NCC(=O)NCC(=O)NCC(=O)N[C@@H](CCC(=O)NCC(=O)NCC(=O)NCC(=O)NCCCC[C@@H]2NC(=O)[C@@H](Cc3ccccc3)NC(=O)[C@H](CC(=O)O)NC(=O)CNC(=O)[C@H](CCCNC(=N)N)NC2=O)C(=O)NCC(=O)NCC(=O)NCC(=O)NCCCC[C@@H]2NC(=O)[C@@H](Cc3ccccc3)NC(=O)[C@H](CC(=O)O)NC(=O)CNC(=O)[C@H](CCCNC(=N)N)NC2=O)C(=O)NCC(=O)NCC(=O)NCC(=O)NCCCC[C@@H]2NC(=O)[C@@H](Cc3ccccc3)NC(=O)[C@H](CC(=O)O)NC(=O)CNC(=O)[C@H](CCCNC(=N)N)NC2=O)NC(=O)[C@@H](Cc2ccccc2)NC(=O)[C@H](CC(=O)O)NC(=O)CNC1=O [indium-111 labelled] | female athymic nu/nu mice | eyes | intravenous |  | 0.5 h |  | 1.2 ± 0.6 %ID/g
CCCC[C@H](NC(=O)CNC(=O)CNC(=O)CN1CCN(CC(=O)O)CCN(CC(=O)O)CC1)C(=O)N[C@H]1CC(=O)NCCCC[C@@H](C(N)=O)NC(=O)[C@H](Cc2c[nH]c3ccccc23)NC(=O)[C@H](CCCNC(=N)N)NC(=O)[C@@H](Cc2ccccc2)NC(=O)[C@H](Cc2c[nH]cn2)NC1=O [technetium-99m labelled] | C57 mice | intestines | intravenous | 0.037 MBq | 0.5 h |  | 2.41 ± 0.31 %ID
CC(C)C[C@@H](NC(=O)[C@@H](CC(C)C)NC(=O)[C@@H](CC(=O)O)NC(=O)[C@@H](CC(C)C)NC(=O)[C@@H](CC(C)C)NC(=O)[C@@H](CC(C)C)NC(=O)[C@H](NC(=O)[C@@H](CC(=O)O)NC(=O)[C@H](NC(=O)[C@H]1CCCN1C(=O)[C@@H](Cc1ccccc1)NC(=O)[C@@H](CC(C)C)NC(=O)[C@@H](CC(C)C)NC(=O)[C@@H](CC(=O)O)NC(=O)[C@@H](CC(C)C)NC(=O)[C@@H](Cc1ccc(O)cc1)NC(=O)[C@@H](C)NC(=O)[C@@H](CCCNC(=N)N)NC(=O)[C@@H](Cc1c[nH]c2ccccc12)NC(=O)[C@H]1CCCN1C(=O)[C@@H](CC(N)=O)NC(=O)[C@@H](CCC(N)=O)NC(=O)[C@@H](CC(=O)O)NC(=O)[C@@H](CC(=O)O)NC(=O)[C@@H](CS)NC(=O)[C@@H](C)NC(=S)Nc1ccc(CC2CN(CC(=O)O)CCN(CC(=O)O)CCN2CC(=O)O)cc1)[C@H](C)O)[C@H](C)O)C(=O)N[C@H](Cc1c[nH]c2ccccc12)C(=O)O (some centres unmarked) [fluorine-18 labelled] | BALB/c mice, female, 4T1 orthotopic tumour | large intestine | intravenous |  | 4 h |  | 22.1 ± 2.46 %ID/g
